Assay results of several laboratories.
Lines come from different studies, so protocols differ. ± marks the error that the study gave.

`Cc1cn(-c2cc(NC(=O)c3ccc(C)c(Nc4nccc(-c5cccnc5)n4)c3)cc(C(F)(F)F)c2)cn1` gave a GI50 of 0.00492 ± 0.0005 µM (Ba/F3 wild type (mouse); cell growth; 48 h).
`CNC(=O)c1ccccc1Sc1ccc2c(N)n[nH]c2c1` has a GI50 of 2.6 µM (Ba/F3 TEL-VEGFR3; cell growth, CCK-8).
For `Cc1cc(=O)oc2cc(OCCCCSC#N)ccc12`, the GI50 was 3.4 ± 0.4 µM (WiDr, multidrug-resistant; sulforhodamine B).
With `O=C(/C=C/C=C/C=C/C1CCCCC1)NC1=C[C@@](O)(/C=C/C=C/C=C/C(=O)NC2=C(O)CCC2=O)[C@@H]2O[C@@H]2C1=O` the GI50 was 17.5 µM (HPAF-II; CellTiter-Glo; 78 h).
`Cc1c(C(=O)O)ccc2c3n(nc12)[C@@H]1[C@H](C3)N(CC2CC2)[C@@]2(C(=O)Nc3cc(Cl)ccc32)[C@H]1c1cccc(Cl)c1F` has a GI50 of 0.007 µM (LS174T (MDM2 non-amplified); cell growth, alamarBlue; 120 h).
`Cn1cncc1C1=CN(c2ncnc3[nH]cnc23)CCS1` gave a GI50 of 13.5 µM (MDA-MB-435; melanoma cell line).
The GI50 of `Nc1n[nH]c2cc(I)ccc12` is reported as 3.6 µM (Ba/F3 TEL-VEGFR3; cell growth, CCK-8).
For `N#CSCCCCOc1ccc2c(-c3ccccc3)cc(=O)oc2c1`, the GI50 was 32 ± 4 µM (WiDr, multidrug-resistant; sulforhodamine B).

A few entries again:
`CNC(=O)c1ccccc1Sc1ccc2c(N)n[nH]c2c1` has a GI50 of 2.6 µM (Ba/F3 TEL-VEGFR3; cell growth, CCK-8).
